Measured values collected from several papers.
Lines come from different studies, so protocols differ.
Organism: Staphylococcus aureus

CC[C@H](C)[C@@H]1NC(=O)[C@H](CO)NC(=O)C(C)(CCCCN)NC(=O)[C@@H]2CSSC[C@@H](C(=O)N[C@@H](Cc3ccc(O)cc3)C(N)=O)NC(=O)[C@H](CCCCN)NC(=O)[C@@H]3CSSC[C@H](NC(=O)[C@H](CCCNC(=N)N)NC(=O)C(C)(CC(C)C)NC(=O)[C@H](CC(=O)O)NC(=O)[C@H](CC(=O)O)NC(=O)[C@H](CCC(=O)O)NC(=O)[C@H](CC(N)=O)NC(=O)[C@H](Cc4c[nH]c5ccccc45)NC(=O)C(C)(CC)NC(=O)CNC(=O)[C@H](CC(N)=O)NC(=O)[C@@H](NC(=O)CNC(=O)[C@H](Cc4ccccc4)NC(=O)CN)CSSC[C@H](NC(=O)[C@H](Cc4ccc(O)cc4)NC(=O)CNC(=O)CNC(=O)[C@H](CCCCN)NC(=O)[C@H](Cc4ccc(O)cc4)NC(=O)[C@H]4CCCN4C(=O)[C@@H]4CCCN4C1=O)C(=O)N[C@@H](C)C(=O)N[C@@H](CCCCN)C(=O)N1CCC[C@@H]1C(=O)NCC(=O)N[C@@H](Cc1ccccc1)C(=O)N[C@@H](C(C)C)C(=O)N3)C(=O)N[C@@H](Cc1c[nH]cn1)C(=O)NC(C)(C)C(=O)N[C@@H](Cc1c[nH]cn1)C(=O)N2 (stereo partly drawn) gave an MBC of 2 µM (473; 24 h, 37 °C, 99.9% killing).
CC[C@H](C)[C@H](NC(=O)[C@H](CCCCN)NC(=O)[C@H](CCCCN)NC(=O)[C@H](Cc1ccccc1)NC(=O)[C@H](Cc1ccccc1)NC(=O)[C@H](CCCCN)NC(=O)[C@H](CCCCN)NC(=O)[C@H](Cc1ccccc1)NC(=O)[C@H](CCCNC(=N)N)NC(=O)[C@@H](N)CCCCN)C(=O)N[C@@H](CCCCN)C(=O)N[C@@H](CCCCN)C(=O)N[C@@H](CO)C(=O)N[C@H](C(=O)N[C@@H](CCCCN)C(=O)N[C@@H](CCCCN)C(=O)N[C@@H](CCCNC(=N)N)C(=O)N[C@H](C(=O)N[C@@H](CCCCN)C(=O)N[C@@H](CCCCN)C(=O)N[C@@H](CC(C)C)C(=O)N[C@@H](Cc1ccccc1)C(=O)N[C@@H](CCCCN)C(=O)N[C@@H](CCCCN)C(=O)N1CCC[C@H]1C(=O)N[C@@H](CCCNC(=N)N)C(=O)N[C@H](C(=O)N[C@H](C(=O)N1CCC[C@H]1C(=O)N[C@H](C(=O)N[C@@H](CO)C(=O)N[C@H](C(=O)N1CCC[C@H]1C(=O)N[C@@H](Cc1ccccc1)C(=O)O)[C@@H](C)CC)[C@@H](C)CC)[C@@H](C)CC)C(C)C)C(C)C)C(C)C has an MBC of 32 µg/mL (MRSA, clinical isolate; 20 h, 37 °C).
With CCC(C)CCC(=O)N[C@H](CCN)C(=O)N[C@@H](CCN)C(=O)N[C@@H](CCN)C(=O)N[C@@H](CC(C)C)C(=O)N[C@H](Cc1ccccc1)C(=O)N[C@@H](CCN)C(=O)N[C@@H](CCN)C(=O)N[C@@H](CC(C)C)C(N)=O (stereo partly drawn) the MBC was 128 µM (ATCC 6538; 24 h, 37 °C).
With CC[C@H](C)[C@H](NC(=O)[C@H](CCCCN)NC(=O)[C@H](CCCNC(=N)N)NC(=O)CNC(=O)[C@@H](NC(=O)CN)C(C)C)C(=O)NCC(=O)N[C@@H](Cc1ccccc1)C(=O)N[C@@H](CCCCN)C(=O)N[C@@H](CCCCN)C(=O)N[C@H](C(=O)N[C@@H](CC(C)C)C(=O)N[C@@H](Cc1ccccc1)C(=O)N[C@@H](Cc1ccccc1)C(=O)N[C@@H](Cc1ccccc1)C(=O)N[C@@H](CCCCN)C(=O)N[C@@H](CCCCN)C(=O)NCC(=O)N[C@@H](Cc1ccc(O)cc1)C(=O)N[C@@H](CCC(=O)O)C(=O)N[C@@H](CCCCN)C(=O)N[C@@H](C)C(=O)N[C@@H](CC(N)=O)C(=O)NCC(=O)NCC(=O)N[C@@H](Cc1ccccc1)C(=O)N[C@H](C(=O)N[C@@H](CCCCN)C(=O)N[C@@H](CCCCN)C(=O)N[C@@H](CCCCN)C(=O)NCC(=O)O)C(C)C)C(C)C the MBC was over 1020 µM (broth microdilution, agar subculture; ATCC 12600, CaMHB).
The MBC of CC(C)C[C@H](NC(=O)[C@H](CCN)NC(=O)[C@H](CCN)NC(=O)[C@@H](Cc1ccccc1)NC(=O)[C@H](CC(C)C)NC(=O)[C@H](CCN)NC(=O)[C@H](CCN)NC(=O)[C@@H](CCN)NC(=O)CCSCCOC(=O)c1ccccc1)C(N)=O is reported as 32 µM (ATCC 6538; 24 h, 37 °C).
The MBC of COc1ccc(CC2[NH2+]CCc3cc(OC)c(OC)cc32)cc1OC.[Cl][Fe-]([Cl])([Cl])[Cl] (stereo not drawn) is reported as over 1600 µM (24 h, 37 °C).
CCCC(=O)OCCSC[C@H](N)C(=O)N[C@H](CCN)C(=O)N[C@@H](CCN)C(=O)N[C@@H](CCN)C(=O)N[C@@H](CC(C)C)C(=O)N[C@H](Cc1ccccc1)C(=O)N[C@@H](CCN)C(=O)N[C@@H](CCN)C(=O)N[C@@H](CC(C)C)C(N)=O has an MBC of over 128 µM (ATCC 6538; 24 h, 37 °C).
The MBC of CC[C@H](C)[C@@H]1NC(=O)[C@H](CO)NC(=O)[C@H](CCCCN)NC(=O)[C@@H]2CSSC[C@@H](C(=O)N[C@@H](Cc3ccc(O)cc3)C(N)=O)NC(=O)[C@H](CCCCN)NC(=O)[C@@H]3CSSC[C@H](NC(=O)[C@H](CCCNC(=N)N)NC(=O)[C@H](CC(C)C)NC(=O)[C@H](CC(=O)O)NC(=O)[C@H](CC(=O)O)NC(=O)[C@H](CCC(=O)O)NC(=O)[C@H](CC(N)=O)NC(=O)[C@H](Cc4c[nH]c5ccccc45)NC(=O)C(C)(CC)NC(=O)CNC(=O)[C@H](CC(N)=O)NC(=O)[C@@H](NC(=O)CNC(=O)[C@H](Cc4ccccc4)NC(=O)CN)CSSC[C@H](NC(=O)[C@H](Cc4ccc(O)cc4)NC(=O)CNC(=O)CNC(=O)[C@H](CCCCN)NC(=O)[C@H](Cc4ccc(O)cc4)NC(=O)[C@H]4CCCN4C(=O)[C@@H]4CCCN4C1=O)C(=O)N[C@@H](C)C(=O)N[C@@H](CCCCN)C(=O)N1CCC[C@@H]1C(=O)NCC(=O)N[C@@H](Cc1ccccc1)C(=O)N[C@@H](C(C)C)C(=O)N3)C(=O)N[C@@H](Cc1c[nH]cn1)C(=O)N[C@@H](CC(N)=O)C(=O)N[C@@H](Cc1c[nH]cn1)C(=O)N2 (stereo partly drawn) is reported as 1 µM (469; 24 h, 37 °C, 99.9% killing).
With Oc1c(Br)cc(Br)c2nc3cc(C(F)(F)F)ccc3nc12 the MBC was 0.3 µM (plating of MIC wells; MRSA BAA-1707).

Some of these lines once more:
The MBC of CC[C@H](C)[C@@H]1NC(=O)[C@H](CO)NC(=O)[C@H](CCCCN)NC(=O)[C@@H]2CSSC[C@@H](C(=O)N[C@@H](Cc3ccc(O)cc3)C(N)=O)NC(=O)[C@H](CCCCN)NC(=O)[C@@H]3CSSC[C@H](NC(=O)[C@H](CCCNC(=N)N)NC(=O)[C@H](CC(C)C)NC(=O)[C@H](CC(=O)O)NC(=O)[C@H](CC(=O)O)NC(=O)[C@H](CCC(=O)O)NC(=O)[C@H](CC(N)=O)NC(=O)[C@H](Cc4c[nH]c5ccccc45)NC(=O)C(C)(CC)NC(=O)CNC(=O)[C@H](CC(N)=O)NC(=O)[C@@H](NC(=O)CNC(=O)[C@H](Cc4ccccc4)NC(=O)CN)CSSC[C@H](NC(=O)[C@H](Cc4ccc(O)cc4)NC(=O)CNC(=O)CNC(=O)[C@H](CCCCN)NC(=O)[C@H](Cc4ccc(O)cc4)NC(=O)[C@H]4CCCN4C(=O)[C@@H]4CCCN4C1=O)C(=O)N[C@@H](C)C(=O)N[C@@H](CCCCN)C(=O)N1CCC[C@@H]1C(=O)NCC(=O)N[C@@H](Cc1ccccc1)C(=O)N[C@@H](C(C)C)C(=O)N3)C(=O)N[C@@H](Cc1c[nH]cn1)C(=O)N[C@@H](CC(N)=O)C(=O)N[C@@H](Cc1c[nH]cn1)C(=O)N2 (stereo partly drawn) is reported as 1 µM (469; 24 h, 37 °C, 99.9% killing).
